Results of several laboratories.
Every numbered part comes from another study and shows a few of its results, in no order.
Sequence of UniProt Q00526 (whole entry, looked up): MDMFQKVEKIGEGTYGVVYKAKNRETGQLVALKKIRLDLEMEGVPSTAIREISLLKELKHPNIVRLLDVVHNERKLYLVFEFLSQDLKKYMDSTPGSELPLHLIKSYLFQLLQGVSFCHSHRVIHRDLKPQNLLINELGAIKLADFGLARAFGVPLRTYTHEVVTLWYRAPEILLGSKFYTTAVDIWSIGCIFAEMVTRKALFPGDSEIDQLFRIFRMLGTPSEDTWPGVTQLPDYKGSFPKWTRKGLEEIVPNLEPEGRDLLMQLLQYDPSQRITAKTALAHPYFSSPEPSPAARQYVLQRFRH
Sequence of UniProt P46734 (whole entry, looked up): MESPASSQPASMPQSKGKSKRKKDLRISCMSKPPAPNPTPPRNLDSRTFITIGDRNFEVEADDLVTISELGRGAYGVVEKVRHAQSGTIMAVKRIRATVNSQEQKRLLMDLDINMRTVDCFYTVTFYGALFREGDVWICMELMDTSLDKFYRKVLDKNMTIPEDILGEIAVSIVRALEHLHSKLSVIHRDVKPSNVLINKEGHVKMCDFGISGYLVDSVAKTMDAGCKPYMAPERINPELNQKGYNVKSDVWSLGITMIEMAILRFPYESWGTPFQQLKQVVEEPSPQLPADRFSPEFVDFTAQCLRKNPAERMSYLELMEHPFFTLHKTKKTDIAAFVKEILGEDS
Sequence of UniProt Q9Y2U5 (whole entry, looked up): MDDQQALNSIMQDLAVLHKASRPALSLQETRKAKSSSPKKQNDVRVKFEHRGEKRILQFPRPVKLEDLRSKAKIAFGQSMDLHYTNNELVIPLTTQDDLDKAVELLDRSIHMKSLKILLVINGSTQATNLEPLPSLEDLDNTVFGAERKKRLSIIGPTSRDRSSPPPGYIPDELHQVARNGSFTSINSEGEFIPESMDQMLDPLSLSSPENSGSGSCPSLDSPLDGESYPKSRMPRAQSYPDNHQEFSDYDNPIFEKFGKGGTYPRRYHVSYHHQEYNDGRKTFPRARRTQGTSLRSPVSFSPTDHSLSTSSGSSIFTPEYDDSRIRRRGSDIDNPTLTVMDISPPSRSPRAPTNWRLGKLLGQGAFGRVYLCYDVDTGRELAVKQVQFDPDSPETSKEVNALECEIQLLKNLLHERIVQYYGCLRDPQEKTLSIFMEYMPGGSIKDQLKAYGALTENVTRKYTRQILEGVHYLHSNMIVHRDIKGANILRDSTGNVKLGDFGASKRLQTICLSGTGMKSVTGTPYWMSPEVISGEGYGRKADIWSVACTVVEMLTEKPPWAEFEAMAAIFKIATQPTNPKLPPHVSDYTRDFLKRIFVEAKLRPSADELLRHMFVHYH
Sequence of UniProt O43283 (whole entry, looked up): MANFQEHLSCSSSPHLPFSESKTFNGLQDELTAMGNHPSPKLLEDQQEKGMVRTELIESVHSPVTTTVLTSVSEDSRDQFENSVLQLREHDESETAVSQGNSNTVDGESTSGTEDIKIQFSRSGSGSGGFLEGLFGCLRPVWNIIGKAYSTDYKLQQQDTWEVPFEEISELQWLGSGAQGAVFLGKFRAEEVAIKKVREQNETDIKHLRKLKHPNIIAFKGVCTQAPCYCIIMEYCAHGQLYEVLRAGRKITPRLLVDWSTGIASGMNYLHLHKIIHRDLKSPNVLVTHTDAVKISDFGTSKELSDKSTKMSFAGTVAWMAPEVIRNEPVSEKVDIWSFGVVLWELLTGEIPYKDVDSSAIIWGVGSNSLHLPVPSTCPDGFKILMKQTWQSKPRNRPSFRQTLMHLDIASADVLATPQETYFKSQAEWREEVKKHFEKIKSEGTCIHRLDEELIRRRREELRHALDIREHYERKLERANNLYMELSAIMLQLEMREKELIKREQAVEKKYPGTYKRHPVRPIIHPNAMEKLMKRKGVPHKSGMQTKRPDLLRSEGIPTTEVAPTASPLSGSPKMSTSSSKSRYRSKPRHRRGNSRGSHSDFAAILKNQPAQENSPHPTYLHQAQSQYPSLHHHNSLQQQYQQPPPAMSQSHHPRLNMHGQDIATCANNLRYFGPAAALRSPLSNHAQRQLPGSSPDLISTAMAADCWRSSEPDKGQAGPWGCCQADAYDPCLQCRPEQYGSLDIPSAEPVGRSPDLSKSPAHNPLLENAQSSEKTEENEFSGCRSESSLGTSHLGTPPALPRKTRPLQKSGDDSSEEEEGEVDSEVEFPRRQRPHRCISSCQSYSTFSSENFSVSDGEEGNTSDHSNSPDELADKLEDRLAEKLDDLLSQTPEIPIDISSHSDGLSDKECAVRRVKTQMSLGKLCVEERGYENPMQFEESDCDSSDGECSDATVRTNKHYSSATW
Sequence of UniProt P11802 (whole entry, looked up): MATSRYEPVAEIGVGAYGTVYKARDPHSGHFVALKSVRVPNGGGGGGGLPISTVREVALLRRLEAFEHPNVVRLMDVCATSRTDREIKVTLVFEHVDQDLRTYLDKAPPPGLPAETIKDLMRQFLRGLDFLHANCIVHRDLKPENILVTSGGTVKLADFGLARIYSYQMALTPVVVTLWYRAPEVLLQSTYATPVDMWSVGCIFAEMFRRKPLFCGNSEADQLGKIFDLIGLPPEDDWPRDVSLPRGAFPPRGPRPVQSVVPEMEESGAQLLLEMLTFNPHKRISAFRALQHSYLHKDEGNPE
Sequence of UniProt Q8WTQ7 (whole entry, looked up): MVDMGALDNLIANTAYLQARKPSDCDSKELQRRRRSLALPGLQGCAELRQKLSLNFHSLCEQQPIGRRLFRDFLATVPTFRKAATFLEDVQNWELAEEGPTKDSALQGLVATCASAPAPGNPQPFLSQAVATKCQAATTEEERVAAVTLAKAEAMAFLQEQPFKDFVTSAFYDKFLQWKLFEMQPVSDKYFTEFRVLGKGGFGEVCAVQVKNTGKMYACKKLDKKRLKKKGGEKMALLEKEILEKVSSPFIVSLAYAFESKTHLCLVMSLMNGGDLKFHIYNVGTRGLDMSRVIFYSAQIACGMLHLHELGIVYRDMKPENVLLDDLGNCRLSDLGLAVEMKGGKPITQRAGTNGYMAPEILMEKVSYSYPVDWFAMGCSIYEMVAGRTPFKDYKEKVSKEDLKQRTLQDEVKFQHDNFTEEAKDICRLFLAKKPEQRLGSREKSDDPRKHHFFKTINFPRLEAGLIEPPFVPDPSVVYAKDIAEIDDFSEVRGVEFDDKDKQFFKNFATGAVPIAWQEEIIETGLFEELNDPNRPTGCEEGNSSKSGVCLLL
Sequence of UniProt P54760 (whole entry, looked up): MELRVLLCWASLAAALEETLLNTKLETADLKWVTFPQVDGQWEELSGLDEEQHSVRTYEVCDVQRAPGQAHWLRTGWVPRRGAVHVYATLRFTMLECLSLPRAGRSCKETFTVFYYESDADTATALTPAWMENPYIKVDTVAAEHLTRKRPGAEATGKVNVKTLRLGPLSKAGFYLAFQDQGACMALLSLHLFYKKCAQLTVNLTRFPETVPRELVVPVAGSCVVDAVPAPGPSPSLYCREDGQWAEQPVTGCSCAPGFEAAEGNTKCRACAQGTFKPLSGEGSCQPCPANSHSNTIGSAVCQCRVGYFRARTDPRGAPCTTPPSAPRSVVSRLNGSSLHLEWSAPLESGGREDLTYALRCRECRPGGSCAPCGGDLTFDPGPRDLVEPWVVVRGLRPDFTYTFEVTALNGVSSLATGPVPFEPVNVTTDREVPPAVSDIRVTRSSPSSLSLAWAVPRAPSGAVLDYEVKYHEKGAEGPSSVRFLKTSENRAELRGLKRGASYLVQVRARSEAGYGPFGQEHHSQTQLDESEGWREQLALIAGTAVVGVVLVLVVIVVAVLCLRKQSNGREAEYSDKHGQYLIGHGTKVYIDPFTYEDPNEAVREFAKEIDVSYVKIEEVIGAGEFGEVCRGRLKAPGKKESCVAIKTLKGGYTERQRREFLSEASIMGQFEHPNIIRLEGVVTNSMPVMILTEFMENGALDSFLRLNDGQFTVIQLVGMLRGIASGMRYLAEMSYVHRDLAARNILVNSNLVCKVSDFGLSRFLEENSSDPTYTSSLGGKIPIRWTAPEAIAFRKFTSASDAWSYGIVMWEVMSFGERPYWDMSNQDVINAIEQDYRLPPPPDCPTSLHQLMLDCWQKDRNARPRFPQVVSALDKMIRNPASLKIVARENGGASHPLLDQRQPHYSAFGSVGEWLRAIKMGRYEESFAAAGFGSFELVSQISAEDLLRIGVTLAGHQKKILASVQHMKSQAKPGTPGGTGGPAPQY
Sequence of UniProt P25101 (whole entry, looked up): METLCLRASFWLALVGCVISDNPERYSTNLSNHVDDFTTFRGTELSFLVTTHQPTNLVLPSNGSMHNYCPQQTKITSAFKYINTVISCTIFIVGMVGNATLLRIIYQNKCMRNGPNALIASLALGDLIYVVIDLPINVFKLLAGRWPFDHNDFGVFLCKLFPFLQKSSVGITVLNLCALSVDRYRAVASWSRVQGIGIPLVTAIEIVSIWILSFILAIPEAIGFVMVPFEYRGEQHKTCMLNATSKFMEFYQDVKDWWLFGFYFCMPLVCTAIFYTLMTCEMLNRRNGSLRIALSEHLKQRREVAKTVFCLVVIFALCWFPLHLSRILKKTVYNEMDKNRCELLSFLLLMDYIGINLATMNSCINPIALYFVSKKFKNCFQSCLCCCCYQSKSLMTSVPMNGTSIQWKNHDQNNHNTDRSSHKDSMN
Sequence of UniProt Q00536 (whole entry, looked up): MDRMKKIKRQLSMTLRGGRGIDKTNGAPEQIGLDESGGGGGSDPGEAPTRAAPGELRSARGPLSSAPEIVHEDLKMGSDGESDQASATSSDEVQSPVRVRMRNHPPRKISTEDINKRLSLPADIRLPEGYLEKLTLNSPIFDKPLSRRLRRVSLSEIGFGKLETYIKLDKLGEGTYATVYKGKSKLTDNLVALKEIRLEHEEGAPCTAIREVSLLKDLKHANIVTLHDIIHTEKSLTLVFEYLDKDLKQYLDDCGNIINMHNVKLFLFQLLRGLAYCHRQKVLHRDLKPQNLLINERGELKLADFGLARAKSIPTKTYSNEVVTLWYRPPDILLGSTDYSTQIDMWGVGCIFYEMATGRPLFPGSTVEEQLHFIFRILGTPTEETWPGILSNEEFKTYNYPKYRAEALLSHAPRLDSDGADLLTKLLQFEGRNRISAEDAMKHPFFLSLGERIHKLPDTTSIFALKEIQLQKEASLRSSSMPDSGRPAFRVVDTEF

Series 1 — mode: inhibitor; concentration: 10 µM; relative to: control
Target: Diamine acetyltransferase 1 (Homo sapiens, UniProt P21673)
Target sequence (P21673 1-171): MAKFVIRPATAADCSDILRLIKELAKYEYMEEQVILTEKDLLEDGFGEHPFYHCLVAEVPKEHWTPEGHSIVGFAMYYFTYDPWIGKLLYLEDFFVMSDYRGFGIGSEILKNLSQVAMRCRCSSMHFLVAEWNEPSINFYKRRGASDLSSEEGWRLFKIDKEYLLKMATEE
| Structure (SMILES) | remaining activity |
| --- | --- |
| CCCCCCCCCCCO | 91.7% |
| C[C@H]1[C@H](C)CC[C@]2(C(=O)O)CC[C@]3(C)C(=CC[C@@H]4[C@@]5(C)CC[C@@H](O)C(C)(C)[C@@H]5CC[C@]43C)[C@H]12 | 112% |
| Cc1occc(=O)c1O | 84.6% |
| COc1cc(O)ccc1CCC(=O)c1ccc(O)cc1 | 98.9% |

Series 2 — organism: Sarcocystis neurona; effect on: parasite growth; concentration: 10 µM
| SMILES | inhibition |
| --- | --- |
| CC(C)NCC(O)COc1ccc(CC(N)=O)cc1 (stereo not drawn) | 28% |
| C[C@H]1O[C@@H](O[C@H]2[C@@H](O)C[C@H](O[C@H]3[C@@H](O)C[C@H](O[C@H]4CC[C@@]5(C)[C@H](CC[C@@H]6[C@@H]5C[C@@H](O)[C@]5(C)[C@@H](C7=CC(=O)OC7)CC[C@]65O)C4)O[C@@H]3C)O[C@@H]2C)C[C@H](O)[C@@H]1O | 49% |
| O=C(O)COCCN1CCN(C(c2ccccc2)c2ccc(Cl)cc2)CC1 (stereo not drawn) | 21.6% |
| CC(C)Cc1ccc(C(C)C(=O)O)cc1 (stereo not drawn) | -23.7% |
| C[C@H]1C[C@@H]2[C@H]([C@@H](O)C[C@@]3(C)[C@H]2CC[C@]3(O)C(=O)CO)[C@@]2(C)C=CC(=O)C=C12 | -20.3% |
| O=C(c1ccccc1)c1ccc2n1CCC2C(=O)O (stereo not drawn) | -45.2% |
| Cl.Nc1nc2ccc(OC(F)(F)F)cc2s1 | -260% |
| C#C[C@]1(O)CC[C@H]2[C@@H]3CCC4=Cc5oncc5C[C@]4(C)[C@H]3CC[C@@]21C | 12% |

Series 3 — Compound: NC(N)=NC(=O)c1nc(Cl)c(N2CCCCCC2)nc1N; effect on: β-arrestin recruitment; mode: agonist; method: PRESTO-Tango; concentration: 10 µM; relative to: untreated
| target | fold over basal |
| --- | --- |
| Oxytocin receptor (OXTR, Homo sapiens, UniProt P30559) | 1.08 |
| Adenosine receptor A3 (ADORA3, Homo sapiens, UniProt P0DMS8) | 1.17 |
| Type-2 angiotensin II receptor (AGTR2, Homo sapiens, UniProt P50052) | 0.98 |
| Endothelin-1 receptor (EDNRA, Homo sapiens, UniProt P25101) | 0.74 |

Series 4 — species: mouse; sample: microsomes or S9; concentration: 2 µM; time: 0.5 h
| Structure (SMILES) | remaining compound [%] |
| --- | --- |
| O=C(O)c1nccnc1C(=O)Nc1nc(-c2cccs2)n[nH]1 | 91.2 |
| Nc1nc2ncc(-c3ccc(Cl)cc3)c(N)n2n1 | 86.5 |
| CN1CC2(CCN(C(=O)NC3CCCCC3)CC2)CC1C(=O)N1CCOCC1 (stereo not drawn) | 82.3 |
| CCOc1cc(=O)n2c(c1C(=O)NC1CCCC1)CCCCC2 | 49 |
| COc1c(Cl)c(-c2cc(C3(O)CCCCC3)on2)c(OC)c2c1OCO2 | 1.23 |
| Cc1cccc(N2CCN(S(=O)(=O)c3ccc(-c4ccc(=O)[nH]n4)s3)CC2C)c1 (stereo not drawn) | 77.3 |

Series 5 — effect on: cell-free assay; method: competition with immobilised ligand; concentration: 1 µM
Compound: CNC(=O)Nc1ccc2c(c1)[C@@]1(CC2)OC(=O)N(CC(=O)N(Cc2ccc(F)cc2)[C@@H](C)C(F)(F)F)C1=O
| target | remaining binding [%] |
| --- | --- |
| Ephrin type-A receptor 3 (EPHA3, Homo sapiens, UniProt P29320) | 100 |
| Mitogen-activated protein kinase kinase kinase 10 (MAP3K10, Homo sapiens, UniProt Q02779) | 73 |
| Rhodopsin kinase GRK7 (GRK7, Homo sapiens, UniProt Q8WTQ7) | 85 |
| Dual specificity mitogen-activated protein kinase kinase 3 (MAP2K3, Homo sapiens, UniProt P46734) | 87 |
| Tyrosine-protein kinase JAK1, JH1 (JAK1, Homo sapiens, UniProt P23458) | 93 |
| Phosphatidylinositol 4,5-bisphosphate 3-kinase catalytic subunit alpha isoform (PIK3CA, Homo sapiens, UniProt P42336, C420R) | 80 |
| Non-receptor tyrosine-protein kinase TYK2, JH2 (TYK2, Homo sapiens, UniProt P29597) | 68 |
| Mitogen-activated protein kinase 15 (MAPK15, Homo sapiens, UniProt Q8TD08) | 93 |
| Cyclin-dependent kinase 3 (CDK3, Homo sapiens, UniProt Q00526) | 100 |
| Serine/threonine-protein kinase Nek1 (NEK1, Homo sapiens, UniProt Q96PY6) | 100 |
| Cyclin-dependent kinase 16 (CDK16, Homo sapiens, UniProt Q00536) | 83 |
| Mitogen-activated protein kinase kinase kinase 2 (MAP3K2, Homo sapiens, UniProt Q9Y2U5) | 100 |
| Testis-specific serine/threonine-protein kinase 1 (TSSK1B, Homo sapiens, UniProt Q9BXA7) | 100 |
| Ephrin type-B receptor 4 (EPHB4, Homo sapiens, UniProt P54760) | 91 |
| Mitogen-activated protein kinase kinase kinase 13 (MAP3K13, Homo sapiens, UniProt O43283) | 100 |
| Serine/threonine-protein kinase tousled-like 1 (TLK1, Homo sapiens, UniProt Q9UKI8) | 100 |
| MAP/microtubule affinity-regulating kinase 3 (MARK3, Homo sapiens, UniProt P27448) | 100 |
| Cyclin-dependent kinase 4, with cyclin D1 (CDK4, Homo sapiens, UniProt P11802) | 75 |
| NUAK family SNF1-like kinase 2 (NUAK2, Homo sapiens, UniProt Q9H093) | 77 |
| Proto-oncogene tyrosine-protein kinase receptor Ret (RET, Homo sapiens, UniProt P07949) | 93 |
| Hormonally up-regulated neu tumor-associated kinase (HUNK, Homo sapiens, UniProt P57058) | 100 |
| High affinity nerve growth factor receptor (NTRK1, Homo sapiens, UniProt P04629) | 41 |

Single results of other studies
| SMILES | cell line | concentration | time | endpoint | result |
| --- | --- | --- | --- | --- | --- |
| COc1cc2c(N3CCN(C(=O)Nc4ccc(OC(C)C)cc4)CC3)ncnc2cc1OCCCN1CCCCC1 | A-375 | 100 µM | 60 h | viability | 5.17% |

Some of these lines once more (series 5):
| target | remaining binding [%] |
| --- | --- |
| Mitogen-activated protein kinase 15 (MAPK15, Homo sapiens, UniProt Q8TD08) | 93 |
| Cyclin-dependent kinase 3 (CDK3, Homo sapiens, UniProt Q00526) | 100 |
